Experimental data collected from several papers.
“And” joins repeats or separate records; there may be more than shown. ± marks the error that the study gave. Values after ≈ are worked out from the molar mass of the structure shown.

COc1ccc(Cn2c3cc(=O)n(Cc4cccc(Cl)n4)c(C)c3c(=O)n2-c2ccccn2)cc1 — normalized viral replication (human respiratory syncytial virus; recombinant reporter virus; concentration not given, scale 0 to 100, together with: adenosine 100 µM): 0
O=C(O)C(Cl)Cl.OCCN(CCO)CCO — herbicidal inhibition (Xanthium sibiricum; 15 mg/mL, 21 days, post-emergence, greenhouse): -50%
CCCCCC[C@H]1C(=O)O[C@H](C)[C@H](NC(=O)c2cccc(NC=O)c2O)C(=O)O[C@@H](C)[C@@H]1OC(=O)CC(C)C — IC50 (Bovine alphaherpesvirus 1; viral replication; HaCaT; 24 h): 8.8 nM
CCOC(=O)C1(Cc2cccc(C)c2)Oc2cc(F)ccc2N(Cc2cccc(C)c2)C1=O (stereo not drawn) — inhibition (Arabidopsis thaliana; stem length, petri dish germination; Col-0, 1/2 MS medium; 200 µg/mL, 7 days, 22 °C, dark): 79.2%
O=[N+]([O-])c1ccc(C2=[N+]([O-])c3ccccc3N3CCCN=C23)cc1 — MIC90 (Fusobacterium nucleatum): ≤ 0.06 µg/mL
CCCCCCCC(=O)NCCCC[C@H](NC(=O)CCCCCCC)C(=O)N[C@@H](CCCCNC(=O)CCCCCCC)C(=O)NCC(=O)NCC(=O)NCC(=O)N[C@@H](CS)C(=O)N[C@@H](CCCNC(=N)N)C(=O)N[C@@H](CCCCN)C(=O)N1CCC[C@H]1C(=O)N[C@@H](CS)C(=O)N[C@@H](CCCNC(=N)N)C(=O)N[C@@H](CCCCN)C(=O)N1CCC[C@H]1C(=O)N[C@@H](CS)C(=O)N[C@@H](CCCNC(=N)N)C(=O)N[C@@H](CCCCN)C(=O)N1CCC[C@H]1C(=O)N[C@@H](CS)C(=O)N[C@@H](CCCNC(=N)N)C(=O)N[C@@H](CCCCN)C(=O)N1CCC[C@H]1C(N)=O — MIC (Candida albicans; broth microdilution; fluconazole-resistant 56214, RPMI-1640; 48 h, 30 °C): 16 µM (≈ 44.2 µg/mL)
CCOC(=O)C1(Cc2ccc(C(F)(F)F)cc2)Oc2cc(F)ccc2N(Cc2ccc(C(F)(F)F)cc2)C1=O (stereo not drawn) — inhibition (Arabidopsis thaliana; root length, petri dish germination; Col-0, 1/2 MS medium; 50 µg/mL, 7 days, 22 °C, dark): 30.1%
CCc1nn(C)c2nc(-c3ccc(C(=O)O)cc3)nc(NCc3ccccc3)c12 — parasite number (Cryptosporidium parvum; HCT-8; 12 x EC90, 6 h; reference: DMSO control): 85.4% and 72.9% and 134% and 81%
CCOC(=O)C1(Cc2ccccc2)Oc2cc(F)ccc2N(Cc2ccccc2)C1=O (stereo not drawn) — root length inhibition (Arabidopsis thaliana; Col-0, seed germination, dark; 200 µg/mL, 7 days, 22 °C): 81.3%
CN(C)c1cccc(-c2ccc3ncnc(Nc4ccc(OCc5cccc(F)c5)c(Cl)c4)c3c2)c1 — EC50 (Plasmodium falciparum; parasite growth, SYBR Green; D6; blood stage): 460 nM
CN(C)c1nc(NCc2c(F)cccc2C(F)(F)F)c(/N=N/c2ccc(Cl)cc2)c(N(C)C)n1 — mortality (Plutella xylostella; leaf dipping; 200 mg/L, 96 h): 70 ± 6.2%
Fc1cccc(COc2ccc(Nc3ncnc4ccc(-c5ccc(N6CCNCC6)cc5)cc34)cc2Cl)c1 — EC50 (Plasmodium falciparum; parasite growth, SYBR Green fluorescence; C235 (TM91C235), drug-resistant): 760 nM
CC(C)C[C@H](NC(=O)[C@H](CC(C)C)NC(=O)[C@H](CCCCN)NC(=O)[C@H](Cc1ccccc1)NC(=O)[C@@H](NC(=O)[C@H](CCCNC(=N)N)NC(=O)[C@@H](N)CCCCN)C(C)C)C(=O)N[C@@H](CCCCN)C(=O)N[C@@H](CCCNC(=N)N)C(=O)N[C@@H](Cc1ccc(O)cc1)C(=O)N[C@@H](Cc1c[nH]c2ccccc12)C(=O)N[C@@H](CCCNC(=N)N)C(=O)N[C@@H](CCC(N)=O)C(=O)N[C@@H](CC(C)C)C(=O)N[C@@H](CCCCN)C(=O)N[C@@H](CCCCN)C(=O)N1CCC[C@H]1C(=O)N[C@H](C(=O)N[C@@H](CCCNC(=N)N)C(=O)NCCOCCOCC(=O)O)C(C)C — lipid fluorescence reduction (Pseudomonas aeruginosa and Staphylococcus aureus; confocal microscopy; mixed biofilm; 10 µM, 6 h, biofilm, pre-formed, 24 h): 87%
CCOC(=O)C1(Cc2ccc(C)cc2)Oc2cc(F)ccc2N(Cc2ccc(C)cc2)C1=O (stereo not drawn) — inhibition (Arabidopsis thaliana; stem length, petri dish germination; Col-0, 1/2 MS medium; 200 µg/mL, 7 days, 22 °C, dark): 71.9%
CC[C@H](C)[C@H](NC(=O)[C@H](CCCCN)NC(=O)[C@H](CCCCN)NC(=O)[C@H](Cc1ccccc1)NC(=O)[C@H](Cc1ccccc1)NC(=O)[C@H](CCCCN)NC(=O)[C@H](CCCCN)NC(=O)[C@H](Cc1ccccc1)NC(=O)[C@H](CCCNC(=N)N)NC(=O)[C@@H](N)CCCCN)C(=O)N[C@@H](CCCCN)C(=O)N[C@@H](CCCCN)C(=O)N[C@@H](CO)C(=O)N[C@H](C(=O)N[C@@H](CCCCN)C(=O)N[C@@H](CCCCN)C(=O)N[C@@H](CCCNC(=N)N)C(=O)N[C@H](C(=O)N[C@@H](CCCCN)C(=O)N[C@@H](CCCCN)C(=O)N[C@@H](CC(C)C)C(=O)N[C@@H](Cc1ccccc1)C(=O)N[C@@H](CCCCN)C(=O)N[C@@H](CCCCN)C(=O)N1CCC[C@H]1C(=O)N[C@@H](CCCNC(=N)N)C(=O)N[C@H](C(=O)N[C@H](C(=O)N1CCC[C@H]1C(=O)N[C@H](C(=O)N[C@@H](CO)C(=O)N[C@H](C(=O)N1CCC[C@H]1C(=O)N[C@@H](Cc1ccccc1)C(=O)O)[C@@H](C)CC)[C@@H](C)CC)[C@@H](C)CC)C(C)C)C(C)C)C(C)C — MBC (Klebsiella pneumoniae; ATCC 13883; 20 h): 4 µg/mL (≈ 0.948 µM)
CCOC(=O)C1(Cc2cc(OC)cc(OC)c2)Oc2cc(F)ccc2N(Cc2cc(OC)cc(OC)c2)C1=O (stereo not drawn) — inhibition (Arabidopsis thaliana; root length, petri dish germination; Col-0, 1/2 MS medium; 50 µg/mL, 7 days, 22 °C, dark): 31%
CC(=O)c1c(O)c(C)c(O)c2c1OC1=CC(=O)C(=C(C)NCCCCOC3OC4OC5(C)CCC6C(C)CCC(C3C)C46OO5)C(=O)C12C (mixture of isomers) — mean survival time (Plasmodium berghei; ANKA GFP, NMRI mouse; oral, 4 x 10 mg/kg): 9.7 days
C=CCN1C(=O)C(CC=C)(C(=O)OCC)Oc2cc(F)ccc21 (stereo not drawn) — inhibition (Arabidopsis thaliana; seed germination; Col-0; concentration not given): > 90%
CC(=O)c1c(O)c(C)c(O)c2c1OC1=CC(=O)C(=C(C)NCCCC(=O)OC3OC4OC5(C)CCC6C(C)CCC(C3C)C46OO5)C(=O)C12C (stereo not drawn) — mean survival time (Plasmodium berghei; ANKA GFP, NMRI mouse; oral, 4 x 3 mg/kg): 7 days
CCOC(=O)C1(Cc2cc(F)cc(F)c2)Oc2cc(F)ccc2N(Cc2cc(F)cc(F)c2)C1=O (stereo not drawn) — inhibition (Arabidopsis thaliana; stem length, petri dish germination; Col-0, 1/2 MS medium; 200 µg/mL, 7 days, 22 °C, dark): 41.6%
Fc1cccc(COc2ccc(Nc3ncnc4ccc(-c5ccc(CN6CCOCC6)cc5)cc34)cc2Cl)c1 — EC50 (Plasmodium falciparum; parasite growth, SYBR Green fluorescence; W2, drug-resistant): 100 nM
Cc1ccc(N2CC3CC(C2)N3C)cc1C(=O)NC1(c2ccc3c4c(cccc24)C(=O)N3C)CC1 — inhibition (Betacoronavirus 1; viral replication; Huh-7, OC43; 50 µM): 79%
COc1ccc(Nc2ncnc3ccc(-c4ccc(S(=O)(=O)N5CCN(C)CC5)cc4)cc23)cc1Cl — EC50 (Plasmodium falciparum; parasite growth, SYBR Green; D6; blood stage): 33 nM
CC[C@H](C)CCCCC(=O)N[C@@H](CCN)C(=O)N[C@H](C(=O)N[C@@H](CCN)C(=O)N[C@H]1CCNC(=O)[C@H]([C@@H](C)O)NC(=O)[C@H](CCN)NC(=O)[C@H](CCN)NC(=O)[C@H](CC(C)C)NC(=O)[C@@H](CC(C)C)NC(=O)[C@H](CCN)NC1=O)[C@@H](C)O — MIC fold change (Escherichia coli; daily serial passaging; ATCC 8739; highest sub-MIC, 26 days; reference: initial MIC): 2.05
Cc1cc(C(=O)Nc2nc3cccc(C)c3n2[C@H]2CCCCN(C(=O)/C=C/CN(C)C)C2)ccn1 — cell growth (Trypanosoma brucei brucei; 2T1 parental; 5 x EC50, 36 h; reference: time 0 h): 45.3% and 53.3% and 50%
Fc1cccc(COc2ccc(Nc3ncnc4ccc(-c5ccccc5)cc34)cc2Cl)c1 — EC50 (Plasmodium falciparum; parasite growth, SYBR Green; D6; blood stage): 790 nM
CCC1(CC)CC(=O)N(C2CCOc3ccc(C(=O)NC4CC(C)(C)Oc5ccccc54)cc32)C(=N)N1 (stereo not drawn) — EC50 (Plasmodium falciparum; parasite growth; W2Mef): 0.3 nM
CCOC(=O)C1(Cc2cccc(C(C)C)c2)Oc2cc(F)ccc2N(Cc2cccc(C(C)C)c2)C1=O (stereo not drawn) — inhibition (Arabidopsis thaliana; root length, petri dish germination; Col-0, 1/2 MS medium; 200 µg/mL, 7 days, 22 °C, dark): 52%
C[C@H](NC(=O)[C@@H](O)c1cc(F)cc(F)c1)C(=O)N[C@@H]1C(=O)N(C)c2ccccc2-c2ccccc21 — inhibition (dengue virus 2; viral infection, luciferase reporter virus; 10 nM, 48 h): 94.9%
O=S(=O)(c1ccc(-c2ccc3ncnc(Nc4ccccc4)c3c2)cc1)N1CCOCC1 — EC50 (Plasmodium falciparum; parasite growth, SYBR Green; D6; blood stage): > 4000 nM
CC(C)[C@H]1NC(=O)[C@H](Cc2ccccc2)NC(=O)[C@@H](C(C)C)NC(=O)[C@@H](C)NC(=O)[C@H](C)NC(=O)[C@@H](Cc2c(-c3ccc(-c4ccc5ccccc5c4)cc3)[nH]c3ccccc23)NC(=O)[C@@H](CO)NC1=O — MIC90 (Candida albicans; broth dilution): > 50 µM
CCCCCCCC(=O)NCCCC[C@H](NC(=O)CCCCCCC)C(=O)N[C@@H](CCCCNC(=O)CCCCCCC)C(=O)NCC(=O)NCC(=O)NCC(=O)N[C@@H](CS)C(=O)N[C@@H](CCCNC(=N)N)C(=O)N[C@@H](CCCCN)C(=O)N1CCC[C@H]1C(=O)N[C@@H](CS)C(=O)N[C@@H](CCCNC(=N)N)C(=O)N[C@@H](CCCCN)C(=O)N1CCC[C@H]1C(=O)N[C@@H](CS)C(=O)N[C@@H](CCCNC(=N)N)C(=O)N[C@@H](CCCCN)C(=O)N1CCC[C@H]1C(N)=O — MIC (Candida albicans; broth microdilution; 56452, RPMI-1640; 48 h, 30 °C): 8 µM (≈ 18.2 µg/mL)
CN(C(=O)c1ccn2ncc(-c3ccc(C(N)=O)cc3)c2c1)c1ccc(C#N)cn1 — faecal Nluc luminescence (Cryptosporidium parvum; UGA1 Nluc, IFN-gamma knockout C57BL/6 mice, faeces; oral, 10 mg/kg daily, 264 h post infection, treatment days 11-17; higher means more parasites): 21200 a.u. and 144000 a.u. and 17400 a.u. and 5910 a.u.
[2H]C([2H])(c1cc(F)c(F)cc1F)n1c(=O)n(Cc2ncn(C)n2)c(=O)[nH]/c1=N\c1cc2cn(C)nc2cc1Cl — IC50 (Murine coronavirus; viral replication, qPCR; L929; 48 h): 1280 nM
O=C(c1ccc(-c2ccc3ncnc(Nc4ccc(OCc5cccc(F)c5)c(Cl)c4)c3c2)cc1)N1CCCCC1 — EC50 (Plasmodium falciparum; parasite growth, SYBR Green fluorescence; W2, drug-resistant): 880 nM
FC(F)(F)c1cccc(CNc2nc(NC3CCN(Cc4ccccc4)CC3)c3nc[nH]c3n2)c1 — fold change (Cryptococcus neoformans; mRNA level, RNA-seq, item: ARG1 CNAG_06500; 48 µg/mL, 3 h; reference: untreated): 2.38
Fc1cccc(COc2ccc(Nc3ncnc4ccc(-c5ccc(N6CCOCC6)cc5)cc34)cc2Cl)c1 — EC50 (Plasmodium falciparum; parasite growth, SYBR Green; D6; blood stage): 270 nM
[O-][N+]1=C(c2ccc(Cl)cc2)C2=NCCCN2c2ccccc21 — MIC50 (Fusobacterium nucleatum; microbial growth): 0.25 µg/mL (≈ 0.802 µM)
C[C@H]1[C@@H](OCc2nnn(-c3cc4ccc(O)cc4oc3=O)c2CO[C@H]2O[C@@H]3O[C@@]4(C)CC[C@H]5[C@H](C)CC[C@@H]([C@H]2C)[C@@]35OO4)O[C@@H]2O[C@@]3(C)CC[C@H]4[C@H](C)CC[C@@H]1[C@@]24OO3 — cure rate (Plasmodium berghei; NK65/GFP, mouse; subcutaneous, 22 µmol/kg daily for four days): 100%
